Assay results collected from several papers.
Each numbered part is a random draw from the data of one study; scales do not carry over between parts.

Block 1 — technique: RNA Bind-n-Seq; form: RNA; matrix: in vitro; concentration: 365 nM; reference: no-protein control; reading: higher = stronger binding
Target: RNA binding protein fox-1 homolog 2, RRM domain, GST-SBP tag (RBFOX2, Homo sapiens, UniProt O43251-10, residues 100-194)
Notes: natural RNA segment, single round, ends assumed
Construct (chain): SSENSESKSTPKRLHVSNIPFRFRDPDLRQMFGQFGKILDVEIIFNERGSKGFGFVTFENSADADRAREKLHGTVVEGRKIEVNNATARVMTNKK
Under “RBNS enrichment (R)”, `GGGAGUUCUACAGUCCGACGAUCUUCUGAGCUCCCCAUCACCAUGGGAGGUGGGGCCUCAAUCUAAGGCCUUCCCUGUCAGAAGGGGGUUGUGGCAAAAGCCACAUUACAAGCUGCCAUCCCCUCCCCGUUUCUGGAAUUCUCGGGUGCCAA` is recorded as 0.202.
For `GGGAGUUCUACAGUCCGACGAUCUGAAAUUUUUCCACACUAUGUGUGUUGUUUCCAUAGCUGUUCACUUCCUCCAGAAGCCUCCUUACAUUAAAAAGCCUUACAGUUAUCCUGCAAGGGACAGGAAGGUCUGAUGGAAUUCUCGGGUGCCAA`, “RBNS enrichment (R)” read 0.218.
Under “RBNS enrichment (R)”, `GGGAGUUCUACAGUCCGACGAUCCUUCAUAGCAGCAGUAGUGGCUUCUCCAUCCUGUUUUCUGCAACAUUCUAUACAAAACUGUGCUGUGACCUUGCGGUAGGCCUGGAUCUGGCAAAGAGAAUACAAAUGAAUGGAAUUCUCGGGUGCCAA` is recorded as 1.24.
Under “RBNS enrichment (R)”, `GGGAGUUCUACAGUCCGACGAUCUUUGUAUAUCAAAUUUCCAUUGUCAUUAAAAACUGUAUCUUGAAACUUUGUGAACUGACUUGCUGUAUUUGCACUUUGAGCUCUUGAAAUAAAUGUGAUUUUUGUGUGAUUGGAAUUCUCGGGUGCCAA` is recorded as 2.65.
`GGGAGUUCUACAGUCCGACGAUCUUAAAAAGAAAUUAUUCUCAUUGCUGUAUUAUAUUGGAAAAGUUUUAAACAACCAAGCUAAAGCUAUGUGAAAGUUGAGCUCAAAGUAGAGGAAAAGUUACUGGUGGUACUGGAAUUCUCGGGUGCCAA` — result for “RBNS enrichment (R)”: 0.439.
For `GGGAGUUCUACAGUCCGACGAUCUUUUCCUUUAAGUUUGUUUUUAAAUGUAUUAGUCCAGGGGAUUUUGCCUUAUGCUGAGGUCAAACUAAGGAUAAGCAAGCUUUUGUCCUUCAUUUUAACUGUUAUGUCAUUGGAAUUCUCGGGUGCCAA`, “RBNS enrichment (R)” read 3.13.
`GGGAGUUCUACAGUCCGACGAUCAUAGUAUGCAUUGUUAUACAUACUGUGUACCUAAUUAUGUAUAGCAGUGUAGUCUCAAUUAUAUCUGAAAGUAAUUGUGACUAACAAGUAUGCUUUGCCUUAUUUCCACAUGGAAUUCUCGGGUGCCAA` — result for “RBNS enrichment (R)”: 0.306.
For `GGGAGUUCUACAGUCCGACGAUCGUUCCUUAGCUGCACCAGGCCCGAAGCUGUUCCCAUGCUUGAGCUUCCAUGGGGAGGAUGCUGAGUGAGCAGUUUCCUACCCCGUGGAUCUAGCAAGCCAUGGAGACAGGUGGAAUUCUCGGGUGCCAA`, “RBNS enrichment (R)” read 0.601.
`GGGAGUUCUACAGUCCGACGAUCUUUUUAUAUUUAAAAUGUUACUUUUCUGUAUGAUGUGCAUGCAAGUUUACCGUAACUUUUCUUAAACUUUUUAGUGCCGUUUCUAGUAUAUUCCUGUAAAUGUCAGUUACUGGAAUUCUCGGGUGCCAA` — result for “RBNS enrichment (R)”: 62.5.

Block 2 — technique: universal PBM; form: double-stranded DNA, one strand shown; matrix: in vitro; concentration: 600 nM; reading: higher = stronger binding
Target: Sal-like protein 4, full length isoform A (SALL4, Homo sapiens, UniProt Q9UJQ4, residues 1-1053)
UniProt Q9UJQ4, sequence (whole entry, looked up): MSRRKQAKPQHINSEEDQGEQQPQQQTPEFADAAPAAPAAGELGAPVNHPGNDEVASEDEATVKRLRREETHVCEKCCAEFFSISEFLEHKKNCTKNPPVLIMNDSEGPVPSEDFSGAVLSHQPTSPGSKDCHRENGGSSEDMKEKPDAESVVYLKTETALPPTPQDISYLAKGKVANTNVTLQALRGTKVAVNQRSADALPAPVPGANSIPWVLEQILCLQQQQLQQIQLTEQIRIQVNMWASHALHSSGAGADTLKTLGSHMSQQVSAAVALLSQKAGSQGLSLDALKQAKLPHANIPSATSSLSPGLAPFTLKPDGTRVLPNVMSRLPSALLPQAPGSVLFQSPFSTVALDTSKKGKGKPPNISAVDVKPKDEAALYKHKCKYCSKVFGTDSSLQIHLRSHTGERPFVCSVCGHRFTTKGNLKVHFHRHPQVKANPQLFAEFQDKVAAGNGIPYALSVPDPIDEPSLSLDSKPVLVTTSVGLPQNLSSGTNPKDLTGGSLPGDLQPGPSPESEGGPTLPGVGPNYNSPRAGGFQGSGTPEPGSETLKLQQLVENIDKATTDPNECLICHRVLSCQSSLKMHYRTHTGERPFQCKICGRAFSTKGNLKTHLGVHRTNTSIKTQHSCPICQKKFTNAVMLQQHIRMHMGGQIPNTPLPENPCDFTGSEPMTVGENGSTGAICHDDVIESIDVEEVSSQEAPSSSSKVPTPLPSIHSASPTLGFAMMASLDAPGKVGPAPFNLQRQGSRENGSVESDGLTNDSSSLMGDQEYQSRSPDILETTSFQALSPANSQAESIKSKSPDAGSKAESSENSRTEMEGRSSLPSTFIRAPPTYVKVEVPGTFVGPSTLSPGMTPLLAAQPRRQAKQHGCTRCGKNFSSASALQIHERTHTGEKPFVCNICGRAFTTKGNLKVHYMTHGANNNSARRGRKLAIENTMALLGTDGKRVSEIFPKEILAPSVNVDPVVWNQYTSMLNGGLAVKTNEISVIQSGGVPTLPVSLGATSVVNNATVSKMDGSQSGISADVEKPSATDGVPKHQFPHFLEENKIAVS
Notes: 8-mer, flanks averaged, mean of replicates
With `CAAAGAAA` the E-score was 0.166.
`CCTTTCCA` gave an E-score of 0.0127.
For `AAAGCTTC`, the E-score was 0.0423.
With `CCGGACAG` the E-score was -0.289.
With `CGATCTTC` the E-score was -0.142.
The E-score of `ACCGATGC` is reported as -0.153.
With `ATCGTCAT` the E-score was 0.231.
`CTCCCAAA` has an E-score of -0.0285.
For `CTAATAAG`, the E-score was 0.253.
With `TACCGTAA` the E-score was 0.201.
`CGGACTAC` has an E-score of -0.0271.
`GCAAGTTA` has an E-score of 0.0201.
The E-score of `ACCTGTTG` is reported as 0.116.
`ATGGGAGG` gave an E-score of -0.0452.
`AATTATGG` gave an E-score of 0.41.
`CTGTGAGC` has an E-score of -0.104.
`CCCTGCCG` has an E-score of -0.33.
`CATTCCAC` has an E-score of 0.0573.
`AAAGGTTC` has an E-score of 0.0428.
`ACTCCATG` has an E-score of -0.112.
With `CACCTGTA` the E-score was -0.0236.
The E-score of `AGGCACAA` is reported as 0.065.
`GTGTTAAC` has an E-score of 0.216.
`CCTTGAAC` gave an E-score of -0.102.
The E-score of `GGTAATGA` is reported as 0.19.

Block 3 — technique: EMSA with sequencing; form: double-stranded DNA, one strand shown; matrix: in vitro; concentration: 10 and 20 nM; reference: negative control set to 0; reading: higher = stronger binding
Target: Hepatocyte nuclear factor 3-alpha (Foxa1, Mus musculus, UniProt P35582, residues 1-468, full length assumed)
UniProt P35582, sequence (whole entry, looked up): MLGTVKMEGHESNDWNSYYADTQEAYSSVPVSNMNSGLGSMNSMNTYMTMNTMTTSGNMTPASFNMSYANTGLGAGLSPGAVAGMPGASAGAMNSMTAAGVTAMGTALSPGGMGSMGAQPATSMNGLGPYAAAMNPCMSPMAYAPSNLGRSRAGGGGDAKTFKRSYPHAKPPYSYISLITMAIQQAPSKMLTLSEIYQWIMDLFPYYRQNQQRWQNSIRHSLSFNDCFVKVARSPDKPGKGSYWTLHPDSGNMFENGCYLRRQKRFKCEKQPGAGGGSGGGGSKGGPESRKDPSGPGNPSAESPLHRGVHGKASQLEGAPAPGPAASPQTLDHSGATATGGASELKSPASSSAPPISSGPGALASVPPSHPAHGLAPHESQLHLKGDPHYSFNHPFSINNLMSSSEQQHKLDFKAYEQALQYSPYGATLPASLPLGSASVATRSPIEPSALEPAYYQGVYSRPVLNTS
Notes: whole designed probe, mean of two concentrations, ends assumed
`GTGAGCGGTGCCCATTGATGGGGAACTGTATGAAATTTGTACAGAGGTGGAATCGTTTCTGCCATTTTTCACACACAAGTTGGTGCACATTCCTAATATGAATTAAAAATAAATATGCCAAGAGTACTCTGGGATGAGTCATCTTTGCATGCAGCCAGCCATGGCCACTGGGAGAAGAGTCAGACATGGGCCATGGAGCTGCAGGCTCACCTGCCCCCGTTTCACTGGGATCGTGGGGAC`: “normalised bound fraction” 0.0983 ratio.
For `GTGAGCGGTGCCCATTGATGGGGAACATCTTCCCCCTCTTCCTTGCCCCACCAGCTCACCTTCCCGGGTATATTGGAGATAGGAAATTAATATAAGCCGGCATTCGTTAACCCTCTTCACGCGCATACTGCTGTTTACTTTGGATCTAACATGGTCCTTTGGCGACGCCAGGCTCCGGGAGAGCAAAGCACCGTGTCAGGGCCATGATCCGGGGTGGCCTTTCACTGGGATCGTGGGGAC`, “normalised bound fraction” read 0.337 ratio.
Under “normalised bound fraction”, `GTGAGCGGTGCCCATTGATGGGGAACGAAGGAAATAATGGAGCCAACCATGCATATAACCTCAGGGAGAACATTCTAGGTAGAGGGAACAGCAAGTGCAAAGGCCCTGAAGTGGGGGTTTGTTTACCTTCTGCACACAGGCCAGTAGTTGCACAATCAATTGGAATGGATGGGAAATGTAAAAGAGAGAAGTTGAAAAGGCCAGGTGCAGTGGCTCATGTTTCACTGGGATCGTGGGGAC` is recorded as 0.426 ratio.
`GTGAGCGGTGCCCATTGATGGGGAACAAAGAAAAAAAAAAAAGAAATACCGAAGTGGTTCCCCAAGGCACCAATTTAAAGTGTATATGTGCAGTGCAGGGTTACTGGACCAAGGCACAGTGTAATCTGCGAAATTTTATTTTTTGTTTTCTTTTTCCTAAGATGTTCCTTACTCCCAGTTACATAAAAATGTGTATTACAAGCAAACAAAAATTAACAGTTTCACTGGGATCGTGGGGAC` — result for “normalised bound fraction”: 0.123 ratio.
Under “normalised bound fraction”, `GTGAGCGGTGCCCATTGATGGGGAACCTCCACAATATTGCAATAAACTAAATATTATAATAAGATGGCTTTGATTATTCTGTGTCCTAAAATGTGCTTATTTTCTATTCTTTTTTGTCCTAGATTACATTTAAAATTATACAACTGTCAGTGTTGATTTATAAGATAGAATGTACATATAAACTGGATCTCTGTCTCAGAGTAAGGAGGTGGAAAGAAATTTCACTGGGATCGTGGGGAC` is recorded as 0.169 ratio.
For `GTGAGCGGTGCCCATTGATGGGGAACATCTTCCCCCTCTTCCTTGCCCCACCAGCTCACCTTCCCGGGTCAAAGTAAACAAGTGTTTACTTTGAAGCCGGCATTCGTTAACCCTCTTCTGGCGCAAACTGCTGTTTGCTCTGGATGAATCATGGTCCTTTGGCGACGCCAGGCTCCGGGAGAGCAAAGCACCGTGTCAGGGCCATGATCCGGGGTGGCCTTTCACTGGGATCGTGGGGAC`, “normalised bound fraction” read 0.453 ratio.
For `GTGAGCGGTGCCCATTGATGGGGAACTAAGAAAGTAATAAACTAGGCTTGCCCTGGCAGTCATATTGTAATGGAACGCAGATACCTCATTGTGTGTGAATTTGAAATTAAAAAACAAAGTAATCTTGGTGAGCTGCTACCATTGCTGCCCCCTCCCTGCCTTGCCCACTAAGGAGAGAGGCACTGCCTTGTTTCCCTTTGTATTTCAAGGAGCTTCTCGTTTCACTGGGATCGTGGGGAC`, “normalised bound fraction” read -0.0441 ratio.

Block 4 — technique: protein binding microarray; form: double-stranded DNA, one strand shown; matrix: in vitro; concentration: not given; reference: not given; reading: higher = stronger binding
Target: Histone acetyltransferase KAT6A, winged helix 1, GST fusion (KAT6A, Homo sapiens, UniProt Q92794, residues 1-85)
Notes: 8-mer, flanks averaged, mean of 2 arrays, mostly near background
Target sequence (chain): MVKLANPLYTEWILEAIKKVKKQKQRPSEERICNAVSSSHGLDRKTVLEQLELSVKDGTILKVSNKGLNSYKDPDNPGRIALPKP
With `AGGAACAA` the E-score was -0.182.
With `CACAGCAA` the E-score was -0.00194.
The E-score of `ATAGCTCG` is reported as 0.0478.
With `AGAACGTC` the E-score was -0.244.
For `TCATCAAA`, the E-score was -0.0496.
`GGACGCCC` has an E-score of 0.168.
`AACTCTCT` has an E-score of -0.239.
`ACGTCGAA` has an E-score of -0.15.
With `AGCAATTG` the E-score was -0.0331.
For `TCACCAAA`, the E-score was -0.101.
For `AGCCTGGC`, the E-score was -0.123.
`CATGGGTA` gave an E-score of -0.0359.
The E-score of `AGGTGCCA` is reported as -0.311.
`AAACCGCC` has an E-score of 0.221.
`ATTCGCAC` gave an E-score of 0.108.
`AAGGGGAT` has an E-score of -0.145.
The E-score of `CCTGAATC` is reported as -0.169.
For `TCAACTAA`, the E-score was -0.194.
`AAGTGAAC` has an E-score of -0.214.
The E-score of `CCTACCTA` is reported as -0.23.
`GAAAACAA` has an E-score of -0.128.
For `ACGAAAGG`, the E-score was -0.0353.
`CCTCTACA` has an E-score of -0.199.
With `ACGCGATG` the E-score was 0.17.
With `CGCATCAG` the E-score was 0.107.

Some of these lines once more (block 4):
With `AGAACGTC` the E-score was -0.244.
For `TCATCAAA`, the E-score was -0.0496.
`GGACGCCC` has an E-score of 0.168.
`AACTCTCT` has an E-score of -0.239.
`ACGTCGAA` has an E-score of -0.15.
With `AGCAATTG` the E-score was -0.0331.
For `TCACCAAA`, the E-score was -0.101.
For `AGCCTGGC`, the E-score was -0.123.
`CATGGGTA` gave an E-score of -0.0359.
